Experimental data collected from several papers.
Compare with care: the assays were run in different laboratories. “And” joins repeats or separate records; there may be more than shown. ± gives the spread as reported. In brackets after ≈: the same amount, converted by molar mass.

Compound = CCOc1nc2cccc(C(=O)O)c2n1Cc1ccc(-c2ccccc2-c2nc(=O)o[nH]2)cc1; target = Nedd8-cullin1 interaction; assay = neddylation, AlphaScreen; conditions = 100 µM; measurement = inhibition; value = -43.5%
Compound = O=C(O)C(=O)O; target = sulfate/chloride exchanger, human; assay = sulfate influx, inhibitor; system = neutrophils; conditions = external site, with: 2 µM nigericin, 85 mM K+; measurement = Ki; value = 7400 µM and 7380 µM
Compound = O=C(NCCO[N+](=O)[O-])c1cccnc1; target = Nedd8-cullin1 interaction; assay = neddylation, AlphaScreen; conditions = 100 µM; measurement = inhibition; value = 41.4%
Compound = N#Cc1ccn2c(-c3ccncc3)c(-c3ccc(F)cc3)nc2c1; target = Pom1 kinase Candida albicans; assay = MIB/MS competition binding; system = Candida albicans cell lysate; conditions = 100 nM; how to read = relative to: DMSO, lower = stronger binding; measurement = log2 fold change; value = -0.222
Compound = CCOc1ccc(N(C)S(=O)(=O)c2cc(Cl)sc2C(=O)Nc2cc(Cl)cc(C(=O)O)c2)cc1OC; target = nuclear hormone receptors; assay = binding; measurement = EC50; value = > 25 µM
Compound = [Br-].[K+]; target = sulfate/chloride exchanger, human; system = neutrophils; conditions = external binding site; measurement = Km; value = 37.9 mM
Compound = O=C(NN=Cc1ccc(C[n+]2ccccc2)cc1)c1ccc2ccc3ccc(C(=O)NN=Cc4ccc(C[n+]5ccccc5)cc4)nc3c2n1.[Br-].[Br-]; target = hairpin duplex DNA; assay = UV melting; conditions = 2 molar equivalents, DNA 3 µM; measurement = ΔTm; value = 0.8 °C
Compound = Oc1ccccc1-c1n[nH]cc1-c1ccnc2ccccc12; target = orf19.4144 Candida albicans; assay = kinase binding, MIB/MS competition; system = Candida albicans lysate; conditions = 1 µM; how to read = relative to: DMSO; measurement = log2 fold change; value = 0.11
Compound = Nc1ncnc2c1ncn2[C@@H]1O[C@H](COP(=O)([O-])OP(=O)([O-])OP(=O)(O)O)[C@@H](O)[C@H]1O.[Mg+2]; target = P2X3 receptor (mouse, D158A); assay = ion current, patch clamp; system = nodose ganglion neurons, P2rx3 D158A/D158A mice; conditions = 10 µM, compound anion form; how to read = relative to: ATP-induced current; measurement = relative current; value = 0.107 ± 0.063
Compound = O=C(NC[C@H](O)CO)c1ccncc1Nc1ccc(I)cc1F; target = TDO2 human; assay = inhibitor; system = A-172; conditions = 1 µM; measurement = kynurenine production; value = 19.1%
Compound = N=C(N)NCCCN(CCCN)C[C@H]1O[C@@H](n2cnc3c(N)ncnc32)[C@H](O)[C@@H]1O; target = PRMT1; assay = enzyme activity, inhibitor; how to read = relative to: SAH IC50 over compound IC50; measurement = relative IC50; value = 14.4
Compound = COc1nnc2ccc(N3CCC(c4ccc(OCCN5CCN(C)C(=O)[C@H]5C)cc4)CC3)nn12; target = BRD4 (human); assay = qPCR, item: BRD4 target genes; system = cancer patients, peripheral blood; measurement = dose with strong target engagement; value = ≥ 10 mg
Compound = OCCN(CCO)c1nc(N2CCCCC2)c2nc(N(CCO)CCO)nc(N3CCCCC3)c2n1; target = Nedd8-cullin1 interaction; assay = neddylation, AlphaScreen; conditions = 100 µM; measurement = inhibition; value = 67.3%
Compound = C[N+](C)(C)Cc1cccc(N=Nc2cccc(C[N+](C)(C)C)c2)c1; target = muscarinic potassium conductance, frog; assay = ion current, photoswitch; system = atrial trabeculae; conditions = 20 µM, flash photoisomerization, cis to trans, 80% cis, with: carbachol 5 µM; measurement = rate constant; value = 3.2 s⁻¹
Compound = O=C(O)[C@H]1OC(O)[C@H](O)[C@@H](O)[C@@H]1O (mixture of isomers); target = sulfate/chloride exchanger, human; system = neutrophils; conditions = external binding site; measurement = Km; value = > 20 mM
Compound = c1coc(-c2n[nH]cc2-c2ccnc3ccccc23)c1; target = orf19.4144 Candida albicans; assay = kinase binding, MIB/MS competition; system = Candida albicans lysate; conditions = 1 µM; how to read = relative to: DMSO; measurement = log2 fold change; value = -0.27
Compound = Cn1c(=O)c(F)c(Nc2ccc(I)cc2F)c2c(=O)n(C[C@@H](O)CO)cnc21; target = TDO2 human; assay = inhibitor; system = A-172; conditions = 1 µM; measurement = kynurenine production; value = 9.5%
Compound = CCCC(=O)Nc1ccc(OCC(O)CNC(C)C)c(C(C)=O)c1 (stereo not shown); target = Nedd8-cullin1 interaction; assay = neddylation, AlphaScreen; conditions = 100 µM; measurement = inhibition; value = 7.2%
Compound = C[n+]1cccc2cc(C=NNC(=O)c3ccc4ccc5ccc(C(=O)NN=Cc6ccc7c(ccc[n+]7C)c6)nc5c4n3)ccc21.[I-].[I-]; target = hairpin duplex DNA; assay = UV melting; conditions = 2 molar equivalents, DNA 3 µM; measurement = ΔTm; value = 2 °C
Compound = [O]=[W](=[O])([OH])[OH]; target = sulfate/chloride exchanger, human; assay = sulfate influx, inhibitor; system = neutrophils; conditions = external site, with: 2 µM nigericin, 85 mM K+; measurement = Ki; value = 1190 µM and 1200 µM
Compound = COc1cc(C(C)=O)ccc1OCCCN1CCC(c2noc3cc(F)ccc23)CC1; target = Nedd8-cullin1 interaction; assay = neddylation, AlphaScreen; conditions = 100 µM; measurement = inhibition; value = 24.7%
Compound = c1ccc(-c2n[nH]cc2-c2ccnc3ccccc23)nc1; target = Pom1 kinase Candida albicans; assay = MIB/MS competition binding; system = Candida albicans cell lysate; conditions = 10 µM; how to read = relative to: DMSO, lower = stronger binding; measurement = log2 fold change; value = 0.0983
Compound = O=CO; target = sulfate/chloride exchanger, human; system = neutrophils; conditions = external binding site; measurement = Km; value = 71.2 mM
Compound = C#Cc1cc(-c2cc(Nc3nc(N[C@@H](C)c4ccc(F)cn4)ncc3Cl)n[nH]2)ccc1C=O; target = panel of 416 human kinases; assay = kinase activity; conditions = 200 nM, hit threshold 1; measurement = number of kinase hits; value = 16
Compound = O=C(O)O; target = sulfate/chloride exchanger, human; system = neutrophils; conditions = external binding site; measurement = Km; value = > 20 mM
Compound = CC[C@@H]1[C@H](F)C(=O)N[C@@H]1COc1nccc2cc(C(N)=O)c(OC)cc12; target = Aurora A, B and C; assay = ATP-site probe binding, inhibitor, ActivX ATP probe profiling; system = THP-1 cell lysate; conditions = 0.04 mM, ATP loop site; measurement = inhibition; value = -1.3%
Compound = COc1ccc([C@@H]2Sc3ccccc3N(CCN(C)C)C(=O)[C@@H]2OC(C)=O)cc1; target = Nedd8-cullin1 interaction; assay = neddylation, AlphaScreen; conditions = 100 µM; measurement = inhibition; value = -8.4%
Compound = N#Cc1ccc2c(-c3ccncc3)c(-c3ccc(F)cc3)nn2c1; target = Pom1 kinase Candida albicans; assay = MIB/MS competition binding; system = Candida albicans cell lysate; conditions = 100 nM; how to read = relative to: DMSO, lower = stronger binding; measurement = log2 fold change; value = -0.458
Compound = COc1nc(NCc2cn(-c3ccc(C(=O)Nc4ccc(C(F)(F)F)cc4)cc3)nn2)nc(OC)n1; target = VEGF (human); assay = sandwich ELISA; system = HCT-116; conditions = concentration not given; how to read = relative to: untreated cells; measurement = VEGF protein level reduction; value = 38%
Compound = Cc1n[nH]c2ccc(-c3cc(OC[C@@H](N)Cc4ccccc4)cnc3-c3ccoc3)cc12; target = Pom1 kinase Candida albicans; assay = MIB/MS competition binding; system = Candida albicans cell lysate; conditions = 100 nM; how to read = relative to: DMSO, lower = stronger binding; measurement = log2 fold change; value = -0.418
Compound = C[C@H](CCC(=O)O)[C@H]1CC[C@H]2[C@@H]3C[C@H](O)[C@@H]4C[C@H](O)CC[C@]4(C)[C@H]3CC[C@]12C; target = Nedd8-cullin1 interaction; assay = neddylation, AlphaScreen; conditions = 100 µM; measurement = inhibition; value = -34.9%
Compound = CCC(C)CNCC(=O)N1CCc2sccc2C1COc1cccc(C)c1 (stereo not shown); target = c-Src; assay = inhibitor; system = cells, COS-1, expressing c-Src; conditions = concentration not given; measurement = myristoylation; value = inactive
Compound = COC(=O)[C@@H]1CC2=CC(=O)CC[C@]2(C)[C@@]23O[C@@H]2C[C@@]2(C)[C@@H](CC[C@@]24CCC(=O)O4)[C@H]13; target = Nedd8-cullin1 interaction; assay = neddylation, AlphaScreen; conditions = 100 µM; measurement = inhibition; value = 22.4%
Compound = [O]=[Mo](=[O])([OH])[OH]; target = sulfate/chloride exchanger, human; system = neutrophils; conditions = external binding site; measurement = Km; value = 45.8 mM
Compound = Cc1c(CN2CCN(C(=O)[C@H](C)O)CC2)sc2c(N3CCOCC3)nc(-c3cnc(N)nc3)nc12; target = phospho-Akt; assay = Akt phosphorylation, inhibitor; system = human patients with peritoneal mesothelioma, plasma; conditions = PK-PD study; measurement = IC50; value = 0.017 µg/mL (≈ 0.0341 µM)
Compound = C=C(CC)C(=O)c1ccc(OCC(=O)O)c(Cl)c1Cl; target = sulfate/chloride exchanger, human; assay = sulfate influx, inhibitor; system = neutrophils; conditions = with: 2 µM nigericin, 85 mM K+; measurement = Ki; value = 7.08 µM and 7.1 µM
Compound = [Ca+2]; target = human TRPA1 W1103A; assay = ion current, two-electrode voltage clamp; system = Xenopus oocytes; conditions = +80 mV, with: AITC; measurement = desensitization time constant; value = 258 s and 336 s and 229 s and 211 s and 238 s and 466 s

For quick reference, copied from above:
Compound = N#Cc1ccc2c(-c3ccncc3)c(-c3ccc(F)cc3)nn2c1; target = Pom1 kinase Candida albicans; assay = MIB/MS competition binding; system = Candida albicans cell lysate; conditions = 100 nM; how to read = relative to: DMSO, lower = stronger binding; measurement = log2 fold change; value = -0.458
Compound = COc1nc(NCc2cn(-c3ccc(C(=O)Nc4ccc(C(F)(F)F)cc4)cc3)nn2)nc(OC)n1; target = VEGF (human); assay = sandwich ELISA; system = HCT-116; conditions = concentration not given; how to read = relative to: untreated cells; measurement = VEGF protein level reduction; value = 38%
